# Measurements from different studies.
# Lines come from different studies, so protocols differ.
# Cell line: HT-29
# Observed: cell growth or viability
Structure (SMILES),technique,time,IC50
N=C(N)NCCC[C@@H](N)C(=O)N[C@@H](Cc1c[nH]c2ccccc12)C(=O)N[C@@H](CCC(N)=O)C(=O)N[C@@H](Cc1c[nH]c2ccccc12)C(=O)N[C@@H](CCCNC(=N)N)C(=O)N[C@@H](Cc1c[nH]c2ccccc12)C(=O)N[C@@H](CCC(N)=O)C(=O)N[C@@H](Cc1c[nH]c2ccccc12)C(=O)N[C@@H](CCCNC(=N)N)C(N)=O,MTT,,> 135 µM
NS(=O)(=O)c1ccc(NC(=O)NN[C@@H]2O[C@H](CO)[C@@H](O)[C@H]2O)cc1,MTT,96 h,81 µM
CCCCc1ccc(C(=O)O[C@@H]2CC(=O)O[C@H](C)C/C=C/C=C/[C@H](O[C@H]3CC[C@H](N(C)C)[C@@H](C)O3)[C@H](C)C[C@H](CC=O)[C@H](O[C@@H]3O[C@H](C)[C@@H](O[C@H]4C[C@@](C)(O)[C@@H](O)[C@H](C)O4)[C@H](N(C)C)[C@H]3O)[C@H]2OC)cc1,CCK-8,72 h,1.45 µM
CCCCCCCC(=O)Oc1c(C)c(OC)c2c(c1C)OC(=O)[C@@H](CCCCCC)[C@]2(O)/C=C/c1ccccc1 (racemic),SRB,72 h,> 50 µM
CC(=O)O[C@H]1CC[C@]2(C)[C@H]3CC=C4[C@@H]5[C@@H](C)[C@H](C)CC[C@]5(C)CC[C@@]4(C)[C@]3(C)CC[C@H]2C1(C)C,resazurin,96 h,7.97 µg/mL
NS(=O)(=O)c1ccc(NC(=O)NN[C@@H]2O[C@H](CO)[C@H](O)[C@H](O)[C@H]2O)cc1,MTT,96 h,> 100 µM
CO[C@@H]1[C@@H](O[C@@H]2O[C@H](C)[C@@H](O[C@H]3C[C@@](C)(O)[C@@H](OC(=O)C4CCCCC4)[C@H](C)O3)[C@H](N(C)C)[C@H]2O)[C@@H](CC=O)C[C@@H](C)[C@@H](O[C@H]2CC[C@H](N(C)C)[C@@H](C)O2)/C=C/C=C/C[C@@H](C)OC(=O)C[C@H]1O,CCK-8,72 h,5.01 µM
O=C(NCCN1CCOCC1)c1cc2c3ccccc3n3c(=O)ccc(n1)c23,MTT,72 h,1.1 µM
COCCSc1nc(N)c2c(F)c(C#N)c(F)c(Cl)c2n1,MTT,96 h,7.97 µM
CO[C@@H]1[C@@H](O[C@@H]2O[C@H](C)[C@@H](O[C@H]3C[C@@](C)(O)[C@@H](OC(=O)Nc4ccc(C(F)(F)F)cc4)[C@H](C)O3)[C@H](N(C)C)[C@H]2O)[C@@H](CC=O)C[C@@H](C)[C@@H](O[C@H]2CC[C@H](N(C)C)[C@@H](C)O2)/C=C/C=C/C[C@@H](C)OC(=O)C[C@H]1O,CCK-8,72 h,3.2 µM
CC12CCCC(n3cc(C(=O)N4CC(N)C4)nn3)(C1)C1CC(C)(C)C1CC2 (stereo not drawn),CCK-8,72 h,7.11 µM
CCCCCCCCSc1nc(N)c2c(F)c(C#N)c(F)c(F)c2n1,MTT,96 h,> 100 µM

# Some of these lines once more:
Structure (SMILES),technique,time,IC50
CC12CCCC(n3cc(C(=O)N4CC(N)C4)nn3)(C1)C1CC(C)(C)C1CC2 (stereo not drawn),CCK-8,72 h,7.11 µM
